Results from different studies.
Lines come from different studies, so protocols differ. ± marks the error that the study gave.
DRD3: D(3) dopamine receptor (DRD3, Homo sapiens, UniProt P35462)
UniProt P35462, sequence (whole entry, looked up): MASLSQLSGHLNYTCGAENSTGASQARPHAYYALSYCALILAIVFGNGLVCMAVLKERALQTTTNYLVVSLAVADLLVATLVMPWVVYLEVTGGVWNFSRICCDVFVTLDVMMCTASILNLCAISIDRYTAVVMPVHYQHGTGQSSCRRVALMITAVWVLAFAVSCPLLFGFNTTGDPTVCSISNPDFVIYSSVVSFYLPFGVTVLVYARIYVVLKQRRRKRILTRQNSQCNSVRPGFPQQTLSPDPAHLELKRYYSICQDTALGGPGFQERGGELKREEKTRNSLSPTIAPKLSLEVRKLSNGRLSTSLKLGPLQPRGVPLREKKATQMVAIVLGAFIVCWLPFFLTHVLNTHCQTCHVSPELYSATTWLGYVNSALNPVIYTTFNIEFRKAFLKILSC
ESR1: Estrogen receptor (ESR1, Homo sapiens, UniProt P03372)
UniProt P03372, sequence (whole entry, looked up): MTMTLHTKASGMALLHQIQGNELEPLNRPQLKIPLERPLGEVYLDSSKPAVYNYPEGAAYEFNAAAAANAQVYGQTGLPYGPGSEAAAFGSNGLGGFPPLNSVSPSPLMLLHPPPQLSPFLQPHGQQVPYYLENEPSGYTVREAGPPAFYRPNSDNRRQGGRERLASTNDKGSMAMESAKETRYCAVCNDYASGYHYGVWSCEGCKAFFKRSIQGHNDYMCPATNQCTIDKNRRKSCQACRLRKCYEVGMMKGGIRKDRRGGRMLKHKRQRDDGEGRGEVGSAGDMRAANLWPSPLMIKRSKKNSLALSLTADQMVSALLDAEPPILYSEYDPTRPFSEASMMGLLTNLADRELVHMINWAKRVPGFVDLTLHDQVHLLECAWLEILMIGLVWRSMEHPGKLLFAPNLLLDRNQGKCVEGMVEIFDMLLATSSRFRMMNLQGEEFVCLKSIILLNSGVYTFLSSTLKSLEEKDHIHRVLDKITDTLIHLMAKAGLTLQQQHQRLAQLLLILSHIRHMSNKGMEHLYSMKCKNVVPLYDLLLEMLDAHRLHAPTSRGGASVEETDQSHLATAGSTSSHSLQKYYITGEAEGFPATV
SLC10A1: Hepatic sodium/bile acid cotransporter (SLC10A1, Homo sapiens, UniProt Q14973)
UniProt Q14973, sequence (whole entry, looked up): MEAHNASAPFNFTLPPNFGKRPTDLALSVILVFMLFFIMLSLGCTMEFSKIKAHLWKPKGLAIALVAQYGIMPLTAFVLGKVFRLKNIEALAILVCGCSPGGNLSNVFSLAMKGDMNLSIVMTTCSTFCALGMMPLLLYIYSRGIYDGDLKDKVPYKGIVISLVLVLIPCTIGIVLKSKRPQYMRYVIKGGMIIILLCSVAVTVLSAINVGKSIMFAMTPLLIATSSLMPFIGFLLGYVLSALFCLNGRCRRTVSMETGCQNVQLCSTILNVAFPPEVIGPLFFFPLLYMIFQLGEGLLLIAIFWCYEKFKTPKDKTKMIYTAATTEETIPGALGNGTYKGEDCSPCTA
MBLAC2: MBLAC2 (Homo sapiens, UniProt Q68D91)
UniProt Q68D91, sequence (whole entry, looked up): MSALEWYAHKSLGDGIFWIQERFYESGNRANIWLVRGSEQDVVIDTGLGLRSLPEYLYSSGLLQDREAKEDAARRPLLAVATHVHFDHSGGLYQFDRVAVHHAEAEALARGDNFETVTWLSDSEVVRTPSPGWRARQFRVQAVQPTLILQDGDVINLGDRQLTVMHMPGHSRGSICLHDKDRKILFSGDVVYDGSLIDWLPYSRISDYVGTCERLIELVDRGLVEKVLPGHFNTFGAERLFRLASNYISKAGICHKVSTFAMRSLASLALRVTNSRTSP
RORC: Nuclear receptor ROR-gamma (RORC, Homo sapiens, UniProt P51449)
UniProt P51449, sequence (whole entry, looked up): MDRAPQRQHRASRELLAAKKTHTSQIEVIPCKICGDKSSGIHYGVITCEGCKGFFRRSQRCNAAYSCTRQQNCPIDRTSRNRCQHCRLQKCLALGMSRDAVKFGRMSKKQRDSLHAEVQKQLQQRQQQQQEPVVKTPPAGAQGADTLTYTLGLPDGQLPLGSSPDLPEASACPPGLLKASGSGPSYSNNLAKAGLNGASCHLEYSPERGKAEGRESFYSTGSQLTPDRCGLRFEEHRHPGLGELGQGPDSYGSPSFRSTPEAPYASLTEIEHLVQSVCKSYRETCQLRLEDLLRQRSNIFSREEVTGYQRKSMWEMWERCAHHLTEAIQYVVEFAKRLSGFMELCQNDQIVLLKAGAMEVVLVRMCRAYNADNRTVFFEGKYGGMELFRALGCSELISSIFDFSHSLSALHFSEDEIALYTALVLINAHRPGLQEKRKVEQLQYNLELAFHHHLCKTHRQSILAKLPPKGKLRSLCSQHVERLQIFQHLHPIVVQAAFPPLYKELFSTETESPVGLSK
CDK2 with cyclin A: Cyclin-dependent kinase 2, with cyclin A (CDK2, Homo sapiens, UniProt P24941)
UniProt Q9NWT6, sequence (whole entry, unmodified, looked up): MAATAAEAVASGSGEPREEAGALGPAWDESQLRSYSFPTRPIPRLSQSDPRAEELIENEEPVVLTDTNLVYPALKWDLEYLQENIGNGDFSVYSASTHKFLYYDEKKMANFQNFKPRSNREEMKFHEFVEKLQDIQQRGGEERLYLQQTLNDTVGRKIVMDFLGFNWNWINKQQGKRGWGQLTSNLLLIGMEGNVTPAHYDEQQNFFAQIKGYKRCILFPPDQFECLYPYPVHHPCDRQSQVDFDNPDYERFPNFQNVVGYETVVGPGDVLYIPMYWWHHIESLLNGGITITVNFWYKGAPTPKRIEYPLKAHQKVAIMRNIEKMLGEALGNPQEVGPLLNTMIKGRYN
UniProt P31424, sequence (whole entry, looked up): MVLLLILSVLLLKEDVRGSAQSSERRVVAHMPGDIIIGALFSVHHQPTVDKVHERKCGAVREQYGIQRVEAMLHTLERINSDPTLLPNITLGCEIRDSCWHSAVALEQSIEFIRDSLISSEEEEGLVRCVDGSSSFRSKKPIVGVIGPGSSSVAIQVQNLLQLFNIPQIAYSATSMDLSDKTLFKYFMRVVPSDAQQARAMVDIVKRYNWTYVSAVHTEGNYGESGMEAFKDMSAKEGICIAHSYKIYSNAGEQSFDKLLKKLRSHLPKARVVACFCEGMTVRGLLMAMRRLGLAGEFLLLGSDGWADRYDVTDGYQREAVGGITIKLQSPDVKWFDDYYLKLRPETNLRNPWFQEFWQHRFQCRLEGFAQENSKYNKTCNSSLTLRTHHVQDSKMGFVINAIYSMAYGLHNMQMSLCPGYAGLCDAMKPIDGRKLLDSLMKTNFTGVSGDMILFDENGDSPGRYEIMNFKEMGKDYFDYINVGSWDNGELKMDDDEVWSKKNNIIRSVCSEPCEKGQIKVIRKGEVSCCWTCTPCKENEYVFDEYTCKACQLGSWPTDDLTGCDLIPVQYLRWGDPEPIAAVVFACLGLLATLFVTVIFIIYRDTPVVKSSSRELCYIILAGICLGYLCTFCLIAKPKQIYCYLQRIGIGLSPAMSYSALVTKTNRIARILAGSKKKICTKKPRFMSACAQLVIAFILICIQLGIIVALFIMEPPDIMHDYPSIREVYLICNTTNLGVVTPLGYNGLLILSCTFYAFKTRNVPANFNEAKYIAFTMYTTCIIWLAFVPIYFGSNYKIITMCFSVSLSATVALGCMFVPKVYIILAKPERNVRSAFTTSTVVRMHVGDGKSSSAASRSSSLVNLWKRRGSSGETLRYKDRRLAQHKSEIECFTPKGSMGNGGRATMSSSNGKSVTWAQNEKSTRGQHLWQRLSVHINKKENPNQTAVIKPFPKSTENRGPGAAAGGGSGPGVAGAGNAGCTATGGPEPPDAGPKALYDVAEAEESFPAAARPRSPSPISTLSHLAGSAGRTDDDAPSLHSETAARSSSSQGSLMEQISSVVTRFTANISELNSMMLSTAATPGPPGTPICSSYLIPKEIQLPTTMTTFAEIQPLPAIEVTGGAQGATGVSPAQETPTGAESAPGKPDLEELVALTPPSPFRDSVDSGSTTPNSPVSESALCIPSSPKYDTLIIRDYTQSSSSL
UniProt P20309, sequence (whole entry, looked up): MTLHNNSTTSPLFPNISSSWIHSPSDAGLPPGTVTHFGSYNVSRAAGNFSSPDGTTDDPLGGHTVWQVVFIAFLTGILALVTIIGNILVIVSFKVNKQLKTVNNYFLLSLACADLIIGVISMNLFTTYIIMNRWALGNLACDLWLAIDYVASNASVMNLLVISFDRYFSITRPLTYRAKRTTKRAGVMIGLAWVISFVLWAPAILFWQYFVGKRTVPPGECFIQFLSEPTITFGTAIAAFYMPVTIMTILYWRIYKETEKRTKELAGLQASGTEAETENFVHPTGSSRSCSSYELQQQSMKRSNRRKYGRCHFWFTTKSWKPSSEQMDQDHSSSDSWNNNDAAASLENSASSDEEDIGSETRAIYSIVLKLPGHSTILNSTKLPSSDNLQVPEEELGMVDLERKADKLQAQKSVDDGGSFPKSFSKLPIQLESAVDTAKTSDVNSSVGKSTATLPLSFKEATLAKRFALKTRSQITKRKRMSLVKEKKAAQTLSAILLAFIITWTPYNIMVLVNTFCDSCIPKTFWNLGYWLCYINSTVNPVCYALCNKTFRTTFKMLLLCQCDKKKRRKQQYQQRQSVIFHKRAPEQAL

SMILES	target	assay	test system	setting	quantity	result
Cc1c(C(=O)N2CCC(F)(F)C2)c(S(=O)(=O)Nc2ccc(C(F)(F)F)c(Cl)c2)c(C)n1C	DRD3	β-arrestin recruitment, antagonist, PathHunter	–	with: dopamine EC80	IC50	> 100 µM
O=C1NCCc2nc(OCc3cccc(F)c3)ccc21	Metabotropic glutamate receptor 5 (Grm5, Rattus norvegicus, UniProt P31424)	calcium flux, allosteric modulator, operational model of allosterism	–	with: glutamate	Kb	2.14 µM
COc1cc(O)c2c(=O)c(O[C@@H]3O[C@H](CO)[C@@H](O)[C@H](O)[C@H]3O)c(-c3ccc(O[C@@H]4O[C@H](CO)[C@@H](O)[C@H](O)[C@H]4O)cc3)oc2c1	ESR1	array formation, agonist	ERα-GFP PRL-HeLa	1 h	EC50	4.17 µM
CN(C)CCCN1c2ccccc2Sc2ccc(Cl)cc21	SLC10A1	taurocholate uptake, inhibitor	NTCP-expressing HEK293	with: 10 µM taurocholate	Ki	767 ± 268 µM
O=C(O)CC(=O)C(=O)O	Hypoxia-inducible factor 1-alpha inhibitor (HIF1AN, Homo sapiens, UniProt Q9NWT6, Y93A)	enzyme activity, inhibitor	–	pH 7	IC50	> 1000 µM
Cn1cc2c(C(=O)O)ccc(NS(=O)(=O)c3ccc(OCC4CCC4)c(Cl)c3)c2n1	Muscarinic acetylcholine receptor M3 (CHRM3, Homo sapiens, UniProt P20309)	agonist	–	–	EC50	> 10 µM
CC[C@@H]1[C@H](F)C(=O)N[C@@H]1COc1nccc2cc(C(N)=O)c(OC)cc12	eIF-2-alpha kinase GCN2 (EIF2AK4, Homo sapiens, UniProt Q9P2K8)	ATP probe binding, KiNativ profiling, measured: GCN2 Lys1 probe site	THP-1 cell lysate	–	IC50	> 5 µM
CN1CCN(CCCN2c3ccccc3Sc3ccc(Cl)cc32)CC1	SLC10A1	taurocholate uptake, inhibitor	NTCP-expressing HEK293	with: 10 µM taurocholate	Ki	280 ± 37 µM
CN(C)Cc1c(C(=O)NCCOc2ccc(C(=O)NO)cc2)oc2ccccc12	MBLAC2	inhibitor, competition pulldown	SW620 and MV4-11 lysate	1 h	Kd	0.0867 µM
Cc1[nH]c(C)c(S(=O)(=O)N2CCC(F)(F)C2)c1S(=O)(=O)N1CCC(F)(F)C1	DRD3	Go activation, antagonist, BRET	–	with: dopamine	IC50	> 100 µM
O=C(CCCCCCC(=O)Nc1ccc([C@H]2O[C@@H](CSc3nc(-c4ccccc4)c(-c4ccccc4)o3)C[C@@H](c3ccc(CO)cc3)O2)cc1)NO	MBLAC2	inhibitor, competition pulldown	SW620 and MV4-11 lysate	1 h	Kd	1.67 µM
CC1Cc2ccc(OCc3c(F)cccc3Cl)cc2N1S(=O)(=O)c1cccc(C(F)(F)F)c1 (stereo not drawn)	RORC	reporter gene, agonist, GAL4 luciferase reporter	–	with: ursolic acid 2 µM	EC50	0.11 ± 0.02 µM
Cc1[nH]c2cccc(C(=O)N3CCC(F)(F)C3)c2c1S(=O)(=O)Nc1ccc(C(F)(F)F)c(Cl)c1	DRD3	β-arrestin recruitment, antagonist, PathHunter	–	with: dopamine EC80	IC50	> 100 µM
C#C[C@]1(O)CC[C@H]2[C@@H]3CCC4=Cc5oncc5C[C@]4(C)[C@H]3CC[C@@]21C	SLC10A1	taurocholate uptake, inhibitor	NTCP-expressing HEK293	with: 10 µM taurocholate	Ki	592 ± 187 µM
O=S(=O)(O)C[C@@H](O)CO	Uncharacterized protein (Pelagibacter ubique, UniProt Q4FMA9)	binding, isothermal titration calorimetry	Candidatus Pelagibacter ubique	with: CaCl2 10 mM	Kd	2.27 ± 0.64 µM
CCn1cc(C(=O)O)c(=O)c2ccc(C)nc21	SLC10A1	taurocholate uptake, inhibitor	NTCP-expressing HEK293	with: 10 µM taurocholate	Ki	1010 ± 652 µM
COc1ccc(-c2nc(N3CCOCC3)c3sc(CN(C)c4ncc(C(=O)NO)cn4)cc3n2)cn1	MBLAC2	inhibitor, competition pulldown	SW620 and MV4-11 lysate	1 h	Kd	0.738 µM
Cc1[nH]c(C)c(S(=O)(=O)Nc2cc(Cl)c(C(F)(F)F)cc2Br)c1C(=O)N1CCC(F)(F)C1	DRD3	Go activation, antagonist, BRET	–	with: dopamine	IC50	> 100 µM

SMILES	target	assay	test system	setting	quantity	result
COc1cc(-c2oc3cc(O)cc(O)c3c(=O)c2O)ccc1O	ESR1	array formation, agonist	ERα-GFP PRL-HeLa	1 h	EC50	0.764 µM
COc1ccccc1NC(=O)CSc1nncn1C	CDK2 with cyclin A	–	–	–	Kd	> 100 µM
COC(=O)[C@@H]1CCCN1C(=O)c1c(C)[nH]c(C)c1S(=O)(=O)Nc1ccc(C(F)(F)F)c(Cl)c1	DRD3	Go activation, antagonist, BRET	–	with: dopamine	IC50	> 100 µM
COc1c(Cl)cccc1COc1ccc2c(c1)N(S(=O)(=O)c1cccc(C(F)(F)F)c1)CC2	RORC	reporter gene, agonist, GAL4 luciferase reporter	–	with: ursolic acid 2 µM	EC50	1.2 ± 0.24 µM
CCOc1ccc2nc(SCC(=O)Nc3c(C)n(C)n(-c4ccccc4)c3=O)sc2c1	CDK2 with cyclin A	–	–	–	Kd	> 100 µM
Cc1[nH]cc(C(=O)N(C)C)c1S(=O)(=O)Nc1ccc(C(F)(F)F)c(Cl)c1	DRD3	β-arrestin recruitment, antagonist, PathHunter	–	with: dopamine EC80	IC50	> 100 µM
COc1ccc2c(c1)c(CC(=O)O)c(C)n2C(=O)c1ccc(Cl)cc1	SLC10A1	taurocholate uptake, inhibitor	NTCP-expressing HEK293	with: 10 µM taurocholate	Ki	141 ± 14 µM
Cc1[nH]c(C)c(S(=O)(=O)Nc2ccc(C(F)(F)F)c(Cl)c2)c1C(=O)N1CCC(F)(F)C1	DRD3	binding, allosteric modulator, radioligand competition binding	cell membranes	with: dopamine vs [3H]methylspiperone	Kb	2.1 µM
O=S(=O)(c1ccnc(C(F)(F)F)c1)N1CCc2ccc(OCc3c(F)cccc3Cl)cc21	RORC	reporter gene, agonist, GAL4 luciferase reporter	–	with: ursolic acid 2 µM	EC50	1.6 ± 0.41 µM
NC(=O)c1ncn([C@@H]2O[C@H](CO)[C@@H](O)[C@H]2O)n1	SLC10A1	taurocholate uptake, inhibitor	NTCP-expressing HEK293	with: 10 µM taurocholate	Ki	193 ± 223 µM
COc1c(-c2ccccc2)oc2cc(O)cc(O)c2c1=O	ESR1	array formation, agonist	ERα-GFP PRL-HeLa	1 h	EC50	1.05 µM
COc1ccccc1NC(=O)CSc1nnc(-c2ccc(F)cc2)n1C	CDK2 with cyclin A	–	–	–	Kd	> 100 µM
Oc1ccc([C@H]2COc3cc(O)ccc3C2)cc1	ESR1	array formation, agonist	ERα-GFP PRL-HeLa	1 h	EC50	0.0367 µM
Cc1[nH]c(C)c(S(=O)(=O)N2CCC(F)(F)C2)c1C(=O)Nc1ccc(C(F)(F)F)c(Cl)c1	DRD3	β-arrestin recruitment, antagonist, PathHunter	–	with: dopamine EC80	IC50	> 100 µM
COc1ccc([C@@H]2CC(=O)c3c(O)cc(O)cc3O2)cc1O	ESR1	array formation, agonist	ERα-GFP PRL-HeLa	1 h	EC50	1.52 µM
O=S(=O)(c1cccc(C(F)(F)F)c1)N1CCc2ccc(OCc3c(Cl)cncc3Cl)cc21	RORC	IL-17 production, inverse agonist	HEK-293T	with: ursolic acid	EC50	0.18 µM
NS(=O)(=O)c1ccc(NN=C2C(=O)Nc3ccc(C(=O)O)cc32)cc1	CDK2 with cyclin A	bio-layer interferometry (Octet RED)	–	298 K, CDK2-cyclin A complex, averaged	Kd	0.00843 µM
CCCCC/C=C/C(=O)CCc1ccc(O)c(OC)c1	ESR1	array formation, agonist	ERα-GFP PRL-HeLa	1 h	EC50	1.7 µM

Repeated from above:
SMILES	target	assay	test system	setting	quantity	result
CCn1cc(C(=O)O)c(=O)c2ccc(C)nc21	SLC10A1	taurocholate uptake, inhibitor	NTCP-expressing HEK293	with: 10 µM taurocholate	Ki	1010 ± 652 µM
CN1CCN(CCCN2c3ccccc3Sc3ccc(Cl)cc32)CC1	SLC10A1	taurocholate uptake, inhibitor	NTCP-expressing HEK293	with: 10 µM taurocholate	Ki	280 ± 37 µM
COc1ccc2c(c1)c(CC(=O)O)c(C)n2C(=O)c1ccc(Cl)cc1	SLC10A1	taurocholate uptake, inhibitor	NTCP-expressing HEK293	with: 10 µM taurocholate	Ki	141 ± 14 µM
CC[C@@H]1[C@H](F)C(=O)N[C@@H]1COc1nccc2cc(C(N)=O)c(OC)cc12	eIF-2-alpha kinase GCN2 (EIF2AK4, Homo sapiens, UniProt Q9P2K8)	ATP probe binding, KiNativ profiling, measured: GCN2 Lys1 probe site	THP-1 cell lysate	–	IC50	> 5 µM
